Measured values pooled from the literature.
Compare with care: the assays were run in different laboratories. Numbers after ± are the reported error.
Target: Sodium-dependent serotonin transporter (SLC6A4, Homo sapiens, UniProt P31645)
Sequence of UniProt P31645 (whole entry, looked up): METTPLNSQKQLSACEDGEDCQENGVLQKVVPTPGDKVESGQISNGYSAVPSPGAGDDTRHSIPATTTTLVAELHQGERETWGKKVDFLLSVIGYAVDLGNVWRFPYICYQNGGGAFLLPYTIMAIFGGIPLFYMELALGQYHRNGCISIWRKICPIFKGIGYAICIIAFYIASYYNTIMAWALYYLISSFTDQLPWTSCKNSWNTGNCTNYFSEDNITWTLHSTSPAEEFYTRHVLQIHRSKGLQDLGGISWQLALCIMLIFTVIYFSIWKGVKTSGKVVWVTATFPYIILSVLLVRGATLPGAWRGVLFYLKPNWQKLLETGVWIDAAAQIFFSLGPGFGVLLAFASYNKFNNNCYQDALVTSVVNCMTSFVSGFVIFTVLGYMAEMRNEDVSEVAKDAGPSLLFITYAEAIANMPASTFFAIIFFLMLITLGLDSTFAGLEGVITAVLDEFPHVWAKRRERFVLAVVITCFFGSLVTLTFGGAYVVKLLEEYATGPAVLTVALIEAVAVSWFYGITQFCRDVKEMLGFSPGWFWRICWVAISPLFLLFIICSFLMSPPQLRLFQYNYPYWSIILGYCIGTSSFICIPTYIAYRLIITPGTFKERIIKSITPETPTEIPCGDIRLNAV

O=C(Nc1cnccc1Cl)N1CCN(Cc2ccc3c(c2)OC(F)(F)O3)CC1
inhibition (radioligand binding, inhibitor; 10 µM, human, added: [3H]paroxetine): 10%

CCCC[C@@H](NC(=O)[C@@H](N)Cc1ccc(O)cc1)C(=O)NCC(=O)N[C@@H](Cc1ccc(F)cc1)C(=O)N(C)CCC[C@@]1(c2ccc(F)cc2)OCc2cc(C#N)ccc21
inhibition (10 µM): < 50%

NCCc1c[nH]c2ccc(O)cc12
Emax (steady-state current, whole-cell patch clamp; HEK293; 10 µM): 94%

Cc1cc(O)cc(C)c1C[C@H](N)C(=O)N[C@H](C)C(=O)NCC(=O)N[C@@H](Cc1ccc(Cl)cc1)C(=O)N(C)CCC[C@@]1(c2ccc(F)cc2)OCc2cc(C#N)ccc21
inhibition (10 µM): < 50%

Cn1cccc1-c1cccnc1
inhibition (binding; 50 µM): -14%

COC(=O)[C@H]1[C@@H](OC(=O)c2ccccc2)C[C@@H]2CC[C@H]1N2C
Hill coefficient (binding): -1.12 ± 0.1

CC(C)CC(=O)OC[C@H]1O[C@@](C#N)(c2ccc3c(N)ncnn23)[C@H](O)[C@@H]1O
inhibition (20 µM): 15%

c1cncc([C@@H]2CCCN2)c1
inhibition (binding; 50 µM, mean): -16.5%

O=C(Nc1cccnn1)N1CCC(=Cc2cccc(Oc3ccc(C(F)(F)F)cn3)c2)CC1
inhibition (radioligand binding, inhibitor; 10 µM, human, added: [3H]paroxetine): 21%

Nc1ncc(-c2nc(N3CCOCC3)nc(N3CCOCC3)n2)c(C(F)F)n1
radioligand binding (10 µM, added: antagonist radioligand): 94%

CCN(CC)CCCC[C@H](NC(=O)[C@H](CC(C)C)NC(=O)[C@H](C)NC(=O)[C@H](Cc1ccccc1)NC(=O)c1ccc(C(C)(C)C)cc1)C(=O)N[C@@H](CO)C(=O)OC
specific binding (antagonist, radioligand binding; 10 µM; relative to: control binding): 94.9%
